Published values of several laboratories.
Lines come from different studies, so protocols differ. ± gives the spread as reported.
PRMT5: Protein arginine N-methyltransferase 5 (PRMT5, Homo sapiens, UniProt O14744)

| Compound | tested on | assay | system | setting | scale | measurement | value |
| --- | --- | --- | --- | --- | --- | --- | --- |
| COc1cc(C(=O)NS(=O)(=O)c2ccccc2C)ccc1Cc1cn(C)c2ccc(NC(=O)OC3CCCC3)cc12 | LRRC8A/LRRC8C (Homo sapiens, UniProt Q8IWT6+Q8TDW0, L134K/L136K) | whole-cell patch clamp | HCT116 LRRC8-/- expressing heteromers | -100 mV | – | Hill coefficient | 1.01 |
| Cn1cc(-c2ccc(-c3cncc(Cl)c3N3CCC4(CCNC4=O)CC3)cc2)cn1 | COLO 205 | gene expression, microarray, measured: TCP11L2 mRNA | – | concentration not given, 6 h | reference: untreated cells | log2 fold change | 1.15 |
| CCCCN1/C(=C/C=C/c2sc3ccc(Br)cc3[n+]2CCCC)Sc2ccc(Br)cc21.[I-] | PRMT5 | inhibitor, scintillation proximity | – | with: biotinylated histone H4 peptide substrate | – | Hill coefficient | 1.88 |
| COc1cc(CNC(=O)CCCC/C=C/C(C)C)ccc1O | TRPV1 (Homo sapiens, UniProt Q8NER1) | ion current, agonist, outside-out patch clamp | HEK293 expressing hTRPV1 | – | – | Hill coefficient | 1.1 |
| CN(C)C(=O)C(CCN1CCC(O)(c2ccc(Cl)cc2)CC1)(c1ccccc1)c1ccccc1 | Calcium-activated potassium channel subunit alpha-1, with LRRC26 γ1 subunit (KCNMA1, Homo sapiens, UniProt Q12791) | BK channel conductance, inside-out patch clamp | – | BKα/γ1, Vm -30 mV, nominally Ca2+-free | – | Hill coefficient | 1.48 ± 1.5 |
| Nc1nc2c(ncn2[C@@H]2O[C@@H]3COP(=O)(O)O[C@H]3[C@H]2O)c(=O)[nH]1 | Cone cGMP-gated channel (Morone saxatilis, UniProt Q3I0N1+Q3I0N2) | channel current, agonist, suction electrode | cone outer segments | single cone shown, with: 0.2 µM Ca2+ | – | Hill coefficient | 2.1 |
| O=C1Nc2c(ccc(Cl)c2Cl)C1=NO | KCNN4/CALM1 (Homo sapiens, UniProt O15554+P0DP23, N201A) | ion current, activator, whole-cell patch clamp | – | N201A mutant | – | Hill coefficient | 1.2 |
| CC1(C)C(/C=C/C=C2/N(CCCc3ccccc3)c3ccc4ccccc4c3C2(C)C)=[N+](CCCc2ccccc2)c2ccc3ccccc3c21.[Br-] | PRMT5 | inhibitor, scintillation proximity | – | with: biotinylated histone H4 peptide substrate | – | Hill coefficient | 15.4 |
| OO | alternative ancestral DyP peroxidase | peroxidase activity, substrate | – | – | – | Hill coefficient | 1.8 |
| CCCCN1/C(=C/C=C(Br)/C=C/C2=[N+](CCCC)c3ccc(Br)cc3C2(C)C)C(C)(C)c2cc(Br)ccc21.[I-] | PRMT5 | inhibitor, scintillation proximity | – | with: biotinylated histone H4 peptide substrate | – | Hill coefficient | 1.39 |
| Nc1ncnc2c1ncn2[C@@H]1O[C@H](COP(=O)(O)OP(=O)(O)OP(=O)(O)O)[C@@H](O)[C@H]1O | P2X purinoceptor 2 (P2RX2, Homo sapiens, UniProt Q9UBL9, R130A) | channel activation, agonist | transfected HEK293 cells | physiological divalent cations, with: 2 mM Ca2+ and 0.5 mM Mg2+ | – | Hill coefficient | 1.6 ± 0.1 |

Excerpt of the above:
| Compound | tested on | assay | system | setting | scale | measurement | value |
| --- | --- | --- | --- | --- | --- | --- | --- |
| CC1(C)C(/C=C/C=C2/N(CCCc3ccccc3)c3ccc4ccccc4c3C2(C)C)=[N+](CCCc2ccccc2)c2ccc3ccccc3c21.[Br-] | PRMT5 | inhibitor, scintillation proximity | – | with: biotinylated histone H4 peptide substrate | – | Hill coefficient | 15.4 |
